Assay results from different studies.
Each numbered part is a random draw from the data of one study; scales do not carry over between parts. Positions count from the first letter of the parent shown.

Block 1
Target: Sal-like protein 4, full length isoform A (SALL4, Homo sapiens, UniProt Q9UJQ4, residues 1-1053)
Sequence of UniProt Q9UJQ4 (whole entry, looked up): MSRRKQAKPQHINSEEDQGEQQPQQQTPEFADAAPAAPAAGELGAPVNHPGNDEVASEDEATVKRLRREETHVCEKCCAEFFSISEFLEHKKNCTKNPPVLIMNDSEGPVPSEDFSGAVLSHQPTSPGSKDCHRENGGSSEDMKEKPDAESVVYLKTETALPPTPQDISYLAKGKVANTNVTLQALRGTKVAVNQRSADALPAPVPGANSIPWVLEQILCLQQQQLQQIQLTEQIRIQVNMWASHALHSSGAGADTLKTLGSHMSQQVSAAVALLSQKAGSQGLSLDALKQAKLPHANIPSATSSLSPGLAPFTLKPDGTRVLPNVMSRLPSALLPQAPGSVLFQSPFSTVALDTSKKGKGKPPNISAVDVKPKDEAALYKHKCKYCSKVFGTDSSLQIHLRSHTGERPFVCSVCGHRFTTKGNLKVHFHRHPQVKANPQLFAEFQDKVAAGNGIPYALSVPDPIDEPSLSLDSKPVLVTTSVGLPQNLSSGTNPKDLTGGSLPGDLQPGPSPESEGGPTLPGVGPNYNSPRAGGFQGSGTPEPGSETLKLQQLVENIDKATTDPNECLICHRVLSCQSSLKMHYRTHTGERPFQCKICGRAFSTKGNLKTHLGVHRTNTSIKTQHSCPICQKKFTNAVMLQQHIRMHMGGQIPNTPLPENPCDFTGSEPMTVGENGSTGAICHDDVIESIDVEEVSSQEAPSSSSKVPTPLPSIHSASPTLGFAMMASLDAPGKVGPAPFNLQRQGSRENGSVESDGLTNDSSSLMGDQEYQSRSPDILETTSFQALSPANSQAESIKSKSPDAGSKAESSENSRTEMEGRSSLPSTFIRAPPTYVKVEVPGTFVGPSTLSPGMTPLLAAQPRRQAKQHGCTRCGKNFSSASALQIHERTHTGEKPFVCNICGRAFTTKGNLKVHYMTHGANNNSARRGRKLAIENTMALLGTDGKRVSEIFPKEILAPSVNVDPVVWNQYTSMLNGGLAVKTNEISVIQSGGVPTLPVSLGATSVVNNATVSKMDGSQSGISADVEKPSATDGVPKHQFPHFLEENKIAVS
Technique: universal PBM
Molecule type: double-stranded DNA, one strand shown
Medium: in vitro
Concentration: 600 nM
Setting: 8-mer, flanks averaged, mean of replicates
Reading: higher = stronger binding
| Oligonucleotide | E-score |
| --- | --- |
| GGAAACGA | 0.0699 |
| GTTAAGTA | 0.211 |
| AAGTGTAG | 0.0856 |
| GGTTTAGA | 0.0753 |
| TAAGGGAA | 0.208 |
| GATGCAAC | -0.0722 |
| GATACAAC | 0.0822 |
| GATAAGTA | 0.24 |
| CGCTCTTA | -0.0771 |
| ACCCAACG | -0.0861 |

Block 2
Target: CCNA2, cyclin fold, Cln2 fusion (human)
Technique: yeast growth competition, sequencing
Medium: yeast
Setting: strong parent motif
Baseline: not given
Reading: higher = stronger binding
Parent: RBL1 docking peptide (human); GSAKRRLFGEDPP; partner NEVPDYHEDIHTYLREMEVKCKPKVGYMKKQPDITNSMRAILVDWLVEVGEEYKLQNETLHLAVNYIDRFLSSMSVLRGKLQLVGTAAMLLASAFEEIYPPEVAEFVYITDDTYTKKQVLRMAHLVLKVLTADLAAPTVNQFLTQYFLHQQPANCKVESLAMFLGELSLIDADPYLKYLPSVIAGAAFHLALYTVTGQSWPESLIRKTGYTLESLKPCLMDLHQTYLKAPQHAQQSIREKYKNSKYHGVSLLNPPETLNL
| Substitution | normalised enrichment score |
| --- | --- |
| GSAKRRSFGEDPP [L7S] | 0.0264 |
| GSAKGRLFGEDPP [R5G] | 0.78 |
| GSAKCRLFGEDPP [R5C] | 1.82 |
| GNAKRRLFGEDPP [S2N] | 5.49 |
| GSASRRLFGEDPP [K4S] | 2.95 |
| GSAKMRLFGEDPP [R5M] | 1.04 |

Block 3
Target: Interferon regulatory factor 3, full length, phosphomimetic (IRF3, Homo sapiens, UniProt Q14653, residues 1-427, S386D/S396D/S398D/S402D/T404D/S405D)
Technique: protein-binding microarray
Molecule type: double-stranded DNA, one strand shown
Medium: in vitro
Concentration: 2540 nM top
Setting: 60-bp whole probe
Together with: salmon DNA 0.4 mg/ml
Baseline: random background probes
Reading: higher = stronger binding
Constant ends, left off below: GCCTAGCAC … GTCTTGATTCGCTTGACGCTGCTG
Residues (chain): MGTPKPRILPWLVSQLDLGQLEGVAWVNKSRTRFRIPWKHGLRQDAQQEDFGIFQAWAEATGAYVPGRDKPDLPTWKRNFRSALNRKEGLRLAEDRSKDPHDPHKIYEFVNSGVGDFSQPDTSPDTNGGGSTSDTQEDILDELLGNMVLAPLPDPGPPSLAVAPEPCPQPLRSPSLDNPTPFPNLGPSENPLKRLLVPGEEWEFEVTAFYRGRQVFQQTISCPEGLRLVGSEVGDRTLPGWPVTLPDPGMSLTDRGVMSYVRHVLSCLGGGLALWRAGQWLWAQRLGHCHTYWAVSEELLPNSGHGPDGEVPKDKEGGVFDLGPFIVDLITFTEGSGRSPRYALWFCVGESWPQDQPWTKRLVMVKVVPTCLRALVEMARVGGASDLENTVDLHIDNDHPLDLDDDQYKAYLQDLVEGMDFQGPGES
| Oligonucleotide | fitted relative affinity [z-score] |
| --- | --- |
| AAGTGTTTCTCAACCAGTTTGTGCTAG | 1.25 |
| TTAGGTATCGGGTATAGGTTAGTGCTA | 0.936 |
| GATGGCCTCTTGCTCAGCCCGTGCTAG | -1.08 |
| GGTGTTTTACAGGTTCTCTTTGTGCTA | 0.0917 |
| GACGGACTGGATCTCGGGACGTGCTAG | -0.35 |
| TCAACATTGCACAATCTTACTGTGCTA | 0.346 |
| CTCCAACAAGGCTATCCCTCGTGCTAG | -0.541 |

Further values, each from its own experiment
| Molecule | target | test | test system | setting | scale | endpoint | result |
| --- | --- | --- | --- | --- | --- | --- | --- |
| PhoQ, residues 284 288 289 292 302 303 TASMAF | PhoP, residues 12 14 15 18 19 QQAYL (Escherichia coli, UniProt P23836) | Sort-seq, refers to: YFP reporter | E. coli | PhoQ-PhoP variant library, together with: 10 µM Mg2+ | baseline: high Mg2+ state, higher = stronger signaling | fold induction | 21.7 |

For quick reference, copied from above (block 3):
| Oligonucleotide | fitted relative affinity [z-score] |
| --- | --- |
| TCAACATTGCACAATCTTACTGTGCTA | 0.346 |
| CTCCAACAAGGCTATCCCTCGTGCTAG | -0.541 |
